Assay results of several laboratories.
Compare with care: the assays were run in different laboratories. ± gives the spread as reported.

C[C@@H]1NC(C)(C)CO[C@@]1(O)c1ccc(F)c(F)c1  ED50 (nicotine antinociception blockade, antagonist, tail-flick test; mouse; 15 min pretreatment, with: nicotine 2.5 mg/kg subcutaneous): ~6 µg/kg
CCOC(=O)[C@H](C)C[C@@H](Cc1ccc(-c2ccccc2)cc1)NC(=O)CCC(=O)O  ejection fraction (rat high-fat streptozotocin diabetes; drinking water, 18 mg/kg/day, 6 weeks, with: ANP 2 pmol/kg/min s.c.): 87%
CC1=C(C(=O)Nc2ccccc2)C(c2ccccc2C#N)NC(=S)N1 (centres unmarked)  mean arterial pressure (carotid artery cannulation; male Wistar rats, anaesthetised; 0.3 mL, 3 h): 20.7 ± 0.68 mm Hg
Cc1ncc(COCc2cn(Cc3ccccc3C(F)(F)F)nn2)c(CO)c1O  absorbance change (Cu2+ chelation; 100 µM, 30 min, 37 °C, with: Cu2+ 100 µM): 0%
Cc1ccc2cc3c(ccc4ccccc43)c3c2c1CC3  menadione reductase activity (inducer; female rat, liver; oral, 10 mg, 24 h, sesame oil vehicle): 83.3 enzyme units
bovine insulin  glucose reduction (Sprague-Dawley rat, fasted; ileal loop, 50 IU/kg): 12.6 ± 9.85%
CC(=O)N[C@@H](CC(C)C)C(=O)NCC(=O)N[C@@H](Cc1ccc(O)cc1)C(=O)NCC(=O)N[C@@H](CCCCN)C(N)=O  transition enthalpy (DSC; SOPC/cholesterol 6/4 bilayers; 5 mol%, pH 7.40): 0.2 kcal/mol
CC1=C(C(=O)Nc2ccc(C)cc2)C(c2ccccc2Cl)NC(=S)N1 (centres unmarked)  mean arterial pressure (carotid artery cannulation; male Wistar rats, anaesthetised; 0.3 mL, 3 h): 22.8 ± 1.13 mm Hg
O=C(NCc1ccc(-c2ccccc2)cc1)c1cccc(=O)n1O  troponin I release (refers to: troponin I in coronary effluent; rat, isolated perfused stunned heart; dose not given, 20-25 min ischaemia, 5 min reperfusion): 58.2 ± 5.2 ng/mL
N=C(N)NCCc1ccc([18F])c(O)c1  neuronal uptake rate (rat, isolated working heart; 10 min infusion, with: 54 µM corticosterone): 0.68 mL/min/g wet weight
Cc1[nH]c(/C=C2\C(=O)Nc3ccc(F)cc32)c(C)c1C(=O)NCCN1CCCC1  median progression-free survival (dogs with lung metastatic osteosarcoma; dose not given, single agent): 57 days
CNCCC(Oc1ccc(C(F)(F)F)cc1)c1ccccc1 (centres unmarked)  immobility time (tail suspension test; VMAT2 heterozygous mice; intraperitoneal, 20 mg/kg, 30 min; baseline: vehicle): decreased
CC(=O)N[C@@H](CC(C)C)C(=O)N1CCC[C@H]1C(=O)N[C@@H](Cc1ccc(O)cc1)C(=O)N1CCC[C@H]1C(=O)N[C@@H](CCCCN)C(N)=O  transition enthalpy (DSC; SOPC/cholesterol 6/4 bilayers; 15 mol%, pH 7.40): 0.4 kcal/mol
CCN[C@@H]1C[C@H](N)[C@@H](O[C@H]2OC(CN)=CC[C@H]2N)[C@H](O)[C@H]1O[C@H]1OC[C@](C)(O)[C@H](NC)[C@H]1O  IC50 (luciferase synthesis, inhibitor, coupled transcription-translation; M. smegmatis 70S ribosomes, Leishmania/Trypanosoma hybrid; 60 min, 37 °C): 127 µM

A few entries again:
CC1=C(C(=O)Nc2ccc(C)cc2)C(c2ccccc2Cl)NC(=S)N1 (centres unmarked)  mean arterial pressure (carotid artery cannulation; male Wistar rats, anaesthetised; 0.3 mL, 3 h): 22.8 ± 1.13 mm Hg
